Published values of several laboratories.
Protocols differ between the studies behind these lines.
Technique: steady-state kinetics
B1: nitrilase Y142F (Rhodococcus rhodochrous, UniProt A4LA85); chain MVEYTNTFKVAAVQAQPVWFDAAKTVDKTVSIIAEAARNGCELVAFPEVFIPGYPYHIWVDSPLAGMAKFAVRYHENSLTMDSPHVQRLLDAARDHNIAVVVGISERDGGSLYMTQLIIDADGQLVARRRKLKPTHVERSVFGEGNGSDISVYDMPFARLGALNCWEHFQTLTKYAMYSMHEQVHVASWPGMSLYQPEVPAFGVDAQLTATRMYALEGQTFVVCTTQVVTPEAHEFFCENEEQRKLIGRGGGFARIIGPDGRDLATPLAEDEEGILYADIDLSAITLAKQAADPVGHYSRPDVLSLNFNQRRTTPVNTPLSTIHATHTFVPQFGALDGVRELNGADEQRALPSTHSDETDRATASI
B2: enzyme (Vibrio cholerae, UniProt Q9KKP2); chain MNQSSLLAEFGDPITRVENALQALREGRGVLLLDDEDRENEGDIIYAVESLTTAQMALMIRECSGIVCLCLTEAQADRLALPPMVVNNNSANQTAFTVSIEAKHGVTTGVSAQDRVTTIKTAANPQAKPEDLARPGHVFPLRARAGGVLARRGHTEGTVDLMQMAGLQPAGVLCELTNPDGSMAKTPEIIEFGKLHNMPVLTIEDMVQYRIQFDLKLA
B3: protein (uncultured bacterium HF130_AEPn_1, UniProt D0E8I5); chain MSLSNSSKVSVLISLLEKSRDLDYIGEAINQLEHSLQCAYFAQRSGADNEMVLAALLHDLGHYCNDTSFEDMGGYGVWQHEKVGADYLRGLGFSERVACLIEGHVAAKRYLVSSKASYLKNLSDASRKTLEYQGGPMDEGERRLFEEREDFKDCLKIRAWDEKGKQTDLKVPGPEHYRKMMEEHLSENQN
B4: CYP26A1 (Homo sapiens, UniProt O43174); chain MGLPALLASALCTFVLPLLLFLAAIKLWDLYCVSGRDRSCALPLPPGTMGFPFFGETLQMVLQRRKFLQMKRRKYGFIYKTHLFGRPTVRVMGADNVRRILLGEHRLVSVHWPASVRTILGSGCLSNLHDSSHKQRKKVIMRAFSREALECYVPVITEEVGSSLEQWLSCGERGLLVYPEVKRLMFRIAMRILLGCEPQLAGDGDSEQQLVEAFEEMTRNLFSLPIDVPFSGLYRGMKARNLIHARIEQNIRAKICGLRASEAGQGCKDALQLLIEHSWERGERLDMQALKQSSTELLFGGHETTASAATSLITYLGLYPHVLQKVREELKSKGLLCKSNQDNKLDMEILEQLKYIGCVIKETLRLNPPVPGGFRVALKTFELNGYQIPKGWNVIYSICDTHDVAEIFTNKEEFNPDRFMLPHPEDASRFSFIPFGGGLRSCVGKEFAKILLKIFTVELARHCDWQLLNGPPTMKTSPTVYPVDNLPARFTHFHGEI
B5: enzyme (Mus musculus, UniProt Q9JLT4); chain GGQQSFDLLVIGGGSGGLACAKEAAQLGKKVAVADYVEPSPRGTKWGLGGTCVNVGCIPKKLMHQAALLGGMIRDAHHYGWEVAQPVQHNWKTMAEAVQNHVKSLNWGHRVQLQDRKVKYFNIKASFVDEHTVRGVDKGGKATLLSAEHIVIATGGRPRYPTQVKGALEYGITSDDIFWLKESPGKTLVVGASYVALECAGFLTGIGLDTTVMMRSIPLRGFDQQMSSLVTEHMESHGTQFLKGCVPSHIKKLPTNQLQVTWEDHASGKEDTGTFDTVLWAIGRVPETRTLNLEKAGISTNPKNQKIIVDAQEATSVPHIYAIGDVAEGRPELTPTAIKAGKLLAQRLFGKSSTLMDYSNVPTTVFTPLEYGCVGLSEEEAVALHGQEHVEVYHAYYKPLEFTVADRDASQCYIKMVCMREPPQLVLGLHFLGPNAGEVTQGFALGIKCGASYAQVMQTVGIHPTCSEEVVKLHISKRSGLEPTVTGCUG
B6: enzyme H189A (Acetivibrio thermocellus, UniProt A3DJ38); chain MKLTIPELSLVVLIGSSGSGKSTFAKKHFKPTEVISSDFCRGLVSDDENDQTVTGAAFDVLHYIVSKRLQLGKLTVVDATNVQESARKPLIEIAKDYHCFPVAVVFNLPEKVCQERNKNRTDRQVEEYVIRKHTQQLKKSIKGLQREGFRYVYILNSPEEVEEVVFERQPLWNNKKDEHGPFDIIGDIAGCYDELKMLLEKLGYLIEEVEGGVGSGKYRVTHPEGRKVLFLGDLVDRGPKITEVLKLVMGMVKSGIALCVPGNHDVKLLRKLNGRDVQITHGLDRTLEQLAKEPQEFIEEVKAFIDGLVSHYVLDDGKLVVAHAGMKEEFQGRGSGKVREFALYGETTGETDEYGLPVRYDWASDYRGKALVVYGHTPQAEVLKVNNTINIDTGCVFGGKLTAYRYPEREIVDVKALKTYYEPAKPFLPKEDMAERFEARTDNDILDINDVLGKKIITTRLMSSITIHEENSIAALEVMSRFAADPHWLIYLPPTMSPCETSKKEGMLEHPIEAFEYFRTRGVGKVVCEQKHMGSRAVVIVCKDSQVAEKRFGVLDGTAGICYTRTGRHFFDDMQLEAELIDRVRKVLDKSGFWGDFNTDWVCLDCELMPWSAKAQKLLEEQYSAVGISGRVVLDEAVKLLKQASLNKTVSFDVSRQTSGKNADINELLQRFTERSEMMQKYVEAYRKYCWPVNSIDDLKLAPFHILATEGKVHSDKNHIWHMDTIAKYCTQDDSLIMATNHILVDVTDAESVDKGIKWWEDLTASGGEGMVVKPYDFIVKNGRELLQPAVKCRGREYLRIIYGPEYTMDENIERLRNRAVGKKRSLALREFSLGMEALERFVRNEPLYRVHECVFGVLALESEPVDPRL
B7: DAO1 (Trigonopsis variabilis, UniProt Q99042); chain MAKIVVIGAGVAGLTTALQLLRKGHEVTIVSEFTPGDLSIGYTSPWAGANWLTFYDGGKLADYDAVSYPILRELARSSPEAGIRLISQRSHVLKRDLPKLEVAMSAICQRNPWFKNTVDSFEIIEDRSRIVHDDVAYLVEFRSVCIHTGVYLNWLMSQCLSLGATVVKRRVNHIKDANLLHSSGSRPDVIVNCSGLFARFLGGVEDKKMYPIRGQVVLVRNSLPFMASFSSTPEKENEDEALYIMTRFDGTSIIGGCFQPNNWSSEPDPSLTHRILSRALDRFPELTKDGPLDIVRECVGHRPGREGGPRVELEKIPGVGFVVHNYGAAGAGYQSSYGMADEAVSYVERALTRPNL
B8: enzyme E217L/L163H/N249W (Thermobifida fusca, UniProt Q47RK4); chain MTDVYILDAVRTPFGRYGGALSGIRPDDLAAHVLRALAERSPGLDPAAVDDVFFGDANGAGEDNRNVARMAALLAGWPTSVPGVTLNRLCGSGMESVIAANRAIAVGDASLAVAGGVESMSRAPWVLPKPAQGFPTGHETLYSTTLGWRMVNPAMPEQWTVSHGESTEQVAATYGISRAEQDAFALRSHERAARAWAEGVFDAEITQIPGAELERDLSIRETSAEKLAALKPAFRPDGTITAGNASPLWDGAAALLIGDAAAAERVGREPLARIVSRGVAAVDPDVFGIGPVQAAEIALRRAGIGWDDLSVVELNEAFAAQSLACLKLWPDLDPEIVNPNGGAIAIGHPLGASGARIVGTLAHELHRRGGGWGLAAICIGVGQGLAVVLHR
Chain of UniProt Q6XEC0 (whole entry, looked up): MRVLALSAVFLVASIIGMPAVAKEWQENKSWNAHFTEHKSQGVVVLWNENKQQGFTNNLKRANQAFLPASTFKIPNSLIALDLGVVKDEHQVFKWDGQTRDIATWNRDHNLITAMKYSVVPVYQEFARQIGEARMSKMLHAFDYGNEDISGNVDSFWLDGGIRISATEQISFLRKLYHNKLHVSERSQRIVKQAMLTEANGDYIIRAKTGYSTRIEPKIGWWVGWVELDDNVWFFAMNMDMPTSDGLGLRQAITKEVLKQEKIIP
Chain of UniProt Q9Y6N5 (whole entry, looked up): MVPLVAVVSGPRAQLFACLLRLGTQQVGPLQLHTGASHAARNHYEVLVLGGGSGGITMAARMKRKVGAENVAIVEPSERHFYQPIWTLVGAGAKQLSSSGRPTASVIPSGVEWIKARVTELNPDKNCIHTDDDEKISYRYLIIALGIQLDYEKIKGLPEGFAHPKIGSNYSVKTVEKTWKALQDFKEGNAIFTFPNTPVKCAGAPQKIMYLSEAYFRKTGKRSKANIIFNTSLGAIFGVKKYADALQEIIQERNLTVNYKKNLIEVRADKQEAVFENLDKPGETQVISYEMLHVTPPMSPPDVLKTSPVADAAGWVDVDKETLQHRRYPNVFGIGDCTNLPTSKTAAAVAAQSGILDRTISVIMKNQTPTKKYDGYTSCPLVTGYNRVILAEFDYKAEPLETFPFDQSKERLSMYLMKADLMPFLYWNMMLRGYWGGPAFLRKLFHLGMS
Chain of UniProt J7SZ64 (whole entry, looked up): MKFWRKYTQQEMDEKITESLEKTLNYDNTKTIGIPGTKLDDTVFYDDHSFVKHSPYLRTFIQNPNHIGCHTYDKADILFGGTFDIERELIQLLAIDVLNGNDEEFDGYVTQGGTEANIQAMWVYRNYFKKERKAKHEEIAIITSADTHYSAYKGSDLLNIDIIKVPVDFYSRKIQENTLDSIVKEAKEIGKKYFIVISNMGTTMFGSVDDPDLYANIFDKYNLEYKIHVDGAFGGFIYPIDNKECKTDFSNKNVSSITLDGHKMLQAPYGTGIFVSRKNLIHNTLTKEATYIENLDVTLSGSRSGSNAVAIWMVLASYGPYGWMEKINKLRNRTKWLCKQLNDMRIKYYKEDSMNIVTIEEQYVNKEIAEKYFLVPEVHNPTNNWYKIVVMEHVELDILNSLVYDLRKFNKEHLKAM
Chain of UniProt P05181 (whole entry, looked up): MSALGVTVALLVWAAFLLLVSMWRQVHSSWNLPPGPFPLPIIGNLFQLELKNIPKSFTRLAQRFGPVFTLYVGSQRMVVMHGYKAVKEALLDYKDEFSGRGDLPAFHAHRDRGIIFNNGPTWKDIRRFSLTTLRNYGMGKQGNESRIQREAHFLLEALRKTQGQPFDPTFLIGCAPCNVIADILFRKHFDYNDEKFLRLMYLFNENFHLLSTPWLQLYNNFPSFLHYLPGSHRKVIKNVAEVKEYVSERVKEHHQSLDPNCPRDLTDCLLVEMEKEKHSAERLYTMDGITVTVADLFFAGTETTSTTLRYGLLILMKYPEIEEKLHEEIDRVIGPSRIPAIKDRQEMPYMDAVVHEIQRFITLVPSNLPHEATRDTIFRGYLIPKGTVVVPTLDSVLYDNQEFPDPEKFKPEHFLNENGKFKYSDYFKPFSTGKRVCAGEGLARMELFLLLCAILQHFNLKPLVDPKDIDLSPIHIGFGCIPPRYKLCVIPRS
Chain of UniProt P33378 (whole entry, looked up): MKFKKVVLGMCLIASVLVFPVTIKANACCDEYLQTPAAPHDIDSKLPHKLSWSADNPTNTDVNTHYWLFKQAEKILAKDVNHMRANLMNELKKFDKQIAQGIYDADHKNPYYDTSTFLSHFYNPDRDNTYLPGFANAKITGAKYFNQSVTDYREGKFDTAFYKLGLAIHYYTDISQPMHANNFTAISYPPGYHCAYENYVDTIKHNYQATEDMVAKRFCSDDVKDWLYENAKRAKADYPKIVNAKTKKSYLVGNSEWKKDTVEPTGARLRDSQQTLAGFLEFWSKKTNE
Chain of UniProt P42826 (whole entry, looked up): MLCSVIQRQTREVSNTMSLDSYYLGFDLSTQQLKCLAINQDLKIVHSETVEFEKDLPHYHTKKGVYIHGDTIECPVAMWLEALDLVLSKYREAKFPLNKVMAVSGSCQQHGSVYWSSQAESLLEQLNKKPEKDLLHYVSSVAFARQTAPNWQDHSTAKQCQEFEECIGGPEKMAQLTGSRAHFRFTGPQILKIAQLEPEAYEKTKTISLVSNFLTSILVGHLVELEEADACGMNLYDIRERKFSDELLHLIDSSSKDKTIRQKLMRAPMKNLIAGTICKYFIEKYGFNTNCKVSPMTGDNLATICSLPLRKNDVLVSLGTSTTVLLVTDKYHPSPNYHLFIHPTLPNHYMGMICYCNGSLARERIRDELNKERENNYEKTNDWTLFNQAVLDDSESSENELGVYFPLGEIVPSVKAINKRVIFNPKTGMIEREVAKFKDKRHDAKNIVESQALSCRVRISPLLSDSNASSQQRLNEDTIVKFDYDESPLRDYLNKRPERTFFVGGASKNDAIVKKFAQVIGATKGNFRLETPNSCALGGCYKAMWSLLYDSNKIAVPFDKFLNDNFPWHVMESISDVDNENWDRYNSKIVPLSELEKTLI

Substance | substrate | matrix | pH | temperature | notes | added | Km [µM]
SQOR (Homo sapiens, UniProt Q9Y6N5) | CS | nanodiscs | pH 7.4 | 25 °C | – | MeSH | 256
B1 (nitrilase Y142F) | N#CCCCCC#N | – | pH 7.5 | 25 °C | – | – | 688
OXA-48 (Klebsiella pneumoniae, UniProt Q6XEC0) | O=C(Cc1cccs1)N[C@@H]1C(=O)N2C(C(=O)O)=C(/C=C/c3ccc([N+](=O)[O-])cc3[N+](=O)[O-])CS[C@H]12 | – | pH 7.2 | 30 °C | – | – | 36
fcl (Campylobacter jejuni, UniProt Q0P8I6) | Nc1nc2c(ncn2[C@@H]2O[C@H](COP(=O)(O)OP(=O)(O)O[C@H]3O[C@@H]([C@H](O)CO)C(=O)[C@@H](O)[C@@H]3O)[C@@H](O)[C@H]2O)c(=O)[nH]1 | – | pH 7.5 | 30 °C | apparent | – | 121
B2 (enzyme) | O=C(CO)[C@H](O)[C@H](O)COP(=O)(O)O | – | pH 7.5 | – | – | – | 277
plcB (Listeria monocytogenes, UniProt P33378) | CCCC(=O)OC[C@H](COP(=O)([O-])OCC[N+](C)(C)C)OC(=O)CCC | – | pH 6 | 37 °C | – | – | 43500
B3 (protein) | NC[C@H](O)P(=O)(O)O | – | pH 7 | 25 °C | NaCl 150 mM | O2, Fe(II) 100 µM, ascorbate 100 µM | 63
B4 (CYP26A1) | CC1=C(/C=C/C(C)=C/C=C/C(C)=C/C(=O)O)C(C)(C)CCC1 | – | – | 37 °C | not purified | – | 0.05
CYP2C19 (Homo sapiens, UniProt P33261) | CCOC(=O)C1(c2ccccc2)CCN(C)CC1 | – | pH 7.4 | – | – | – | 167
B5 (enzyme) | N#C[Se]O | – | – | – | – | – | 33
B6 (enzyme H189A) | Nc1ncnc2c1ncn2[C@@H]1O[C@H](CO)[C@H]2OP(=O)(O)O[C@H]21 | – | pH 7.5 | 45 °C | – | – | 29000
aromatic amino acid decarboxylase (Clostridium sporogenes, UniProt J7SZ64) | N[C@@H](Cc1c[nH]c2c(Br)cccc12)C(=O)O | – | pH 7 | 37 °C | not purified | PLP 40 µM | 3100
B7 (DAO1) | O=C1C(Cl)=CC(=Nc2ccc(O)cc2)C=C1Cl | – | pH 8 | 22 °C | varied electron acceptor, apparent | D-methionine 200 mM | 31
CYP2E1 (Homo sapiens, UniProt P05181) | C=Cc1ccccc1 | – | pH 7.4 | 37 °C | – | – | 56.1
B8 (enzyme E217L/L163H/N249W) | CC(C)(COP(=O)(O)OP(=O)(O)OC[C@H]1O[C@@H](n2cnc3c(N)ncnc32)[C@H](O)[C@@H]1OP(=O)(O)O)[C@@H](O)C(=O)NCCC(=O)NCCSC(=O)CCC(=O)O | – | pH 7.4 | 37 °C | – | – | 590
XKS1 (Saccharomyces cerevisiae, UniProt P42826) | Nc1ncnc2c1ncn2[C@@H]1O[C@H](COP(=O)(O)OP(=O)(O)OP(=O)(O)O)[C@@H](O)[C@H]1O | – | pH 7.4 | 30 °C | KCl 50 mM | D-xylulose 5.00 mM | 1700
ω-transaminase A60V/E38Q/F86L/I154V/M128F/P9A/R417L/S87N/W58M (Pseudomonas jessenii) | CCCC(=O)c1ccccc1 | – | pH 8 | 56 °C | apparent | isopropylamine 1 M, PLP 0.05 mM | 1500

Repeated from above:
Substance | substrate | matrix | pH | temperature | notes | added | Km [µM]
B2 (enzyme) | O=C(CO)[C@H](O)[C@H](O)COP(=O)(O)O | – | pH 7.5 | – | – | – | 277
